Results of several laboratories.
Numbered parts are unrelated; each lists some results of a single study.

Study 1
Target: Ras GTPase-activating protein-binding protein 1, C-terminal RGG region (G3BP1, Homo sapiens, UniProt Q13283)
UniProt Q13283, sequence (whole entry, looked up): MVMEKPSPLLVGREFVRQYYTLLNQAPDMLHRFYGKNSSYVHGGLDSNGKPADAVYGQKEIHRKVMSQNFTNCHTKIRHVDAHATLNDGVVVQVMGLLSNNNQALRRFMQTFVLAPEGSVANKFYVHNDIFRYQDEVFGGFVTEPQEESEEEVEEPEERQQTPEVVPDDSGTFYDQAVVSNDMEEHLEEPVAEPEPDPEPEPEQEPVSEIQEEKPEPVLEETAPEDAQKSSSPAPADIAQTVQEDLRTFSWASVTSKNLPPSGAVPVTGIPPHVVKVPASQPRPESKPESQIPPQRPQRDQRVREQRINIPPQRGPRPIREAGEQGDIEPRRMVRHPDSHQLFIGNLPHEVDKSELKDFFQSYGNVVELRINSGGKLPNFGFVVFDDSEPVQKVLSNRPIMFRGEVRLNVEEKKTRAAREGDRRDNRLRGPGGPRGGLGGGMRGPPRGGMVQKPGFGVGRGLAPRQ
Technique: RNA Bind-n-Seq
Molecule type: RNA
Medium: in vitro
Concentration: 1 µM
Setting: whole 134-nt RNA, ends assumed
Together with: 150 mM KCl
Relative to: input library
Reading: higher = stronger binding
The log2 enrichment of `GGGAGUUCUACAGUCCGACGAUCAGUCCUGUGCUACACAUCGUAUGUACCGAAUCGGGUUUUUGGGUUUGGGUUUUUGGGAAAGUAUUAUGUUACGCCGUUCGGAUCUGCACUUGGAAUUCUCGGGUGUCAAGG` is reported as 0.912.
For `GGGAGUUCUACAGUCCGACGAUCUCCUUCCUUUUUUUGUCUUAAACAUAGGACAUGGAUUUGAUUGACAUACUUUGGAGGCAAGAUAUAGAUCUUGGAGUAAGUCGAGAAGUAUGGAAUUCUCGGGUGUCAAGG`, the log2 enrichment was -1.07.
`GGGAGUUCUACAGUCCGACGAUCGCAGGAAGUAAAAACAAAUGCAAAUGCUUCGGAUAGUGGCAGGGGUGGGGGUUGCUAAGGAAAGGGUGGGAUGGGAGUGGGUAAAGAGUUUGGAAUUCUCGGGUGUCAAGG` gave a log2 enrichment of 2.01.
With `GGGAGUUCUACAGUCCGACGAUCACCAUGCAGGUGGGCAUCUUUGGGAAGUGGGGCAAGGGGGGGAUAGGGAGGGGGGUAACACUUUGGGAACCGGUGGUCCCAGGUCGUUUCUGGAAUUCUCGGGUGUCAAGG` the log2 enrichment was 2.03.

Study 2
Target: Sal-like protein 4, full length isoform A (SALL4, Homo sapiens, UniProt Q9UJQ4, residues 1-1053)
UniProt Q9UJQ4, sequence (whole entry, looked up): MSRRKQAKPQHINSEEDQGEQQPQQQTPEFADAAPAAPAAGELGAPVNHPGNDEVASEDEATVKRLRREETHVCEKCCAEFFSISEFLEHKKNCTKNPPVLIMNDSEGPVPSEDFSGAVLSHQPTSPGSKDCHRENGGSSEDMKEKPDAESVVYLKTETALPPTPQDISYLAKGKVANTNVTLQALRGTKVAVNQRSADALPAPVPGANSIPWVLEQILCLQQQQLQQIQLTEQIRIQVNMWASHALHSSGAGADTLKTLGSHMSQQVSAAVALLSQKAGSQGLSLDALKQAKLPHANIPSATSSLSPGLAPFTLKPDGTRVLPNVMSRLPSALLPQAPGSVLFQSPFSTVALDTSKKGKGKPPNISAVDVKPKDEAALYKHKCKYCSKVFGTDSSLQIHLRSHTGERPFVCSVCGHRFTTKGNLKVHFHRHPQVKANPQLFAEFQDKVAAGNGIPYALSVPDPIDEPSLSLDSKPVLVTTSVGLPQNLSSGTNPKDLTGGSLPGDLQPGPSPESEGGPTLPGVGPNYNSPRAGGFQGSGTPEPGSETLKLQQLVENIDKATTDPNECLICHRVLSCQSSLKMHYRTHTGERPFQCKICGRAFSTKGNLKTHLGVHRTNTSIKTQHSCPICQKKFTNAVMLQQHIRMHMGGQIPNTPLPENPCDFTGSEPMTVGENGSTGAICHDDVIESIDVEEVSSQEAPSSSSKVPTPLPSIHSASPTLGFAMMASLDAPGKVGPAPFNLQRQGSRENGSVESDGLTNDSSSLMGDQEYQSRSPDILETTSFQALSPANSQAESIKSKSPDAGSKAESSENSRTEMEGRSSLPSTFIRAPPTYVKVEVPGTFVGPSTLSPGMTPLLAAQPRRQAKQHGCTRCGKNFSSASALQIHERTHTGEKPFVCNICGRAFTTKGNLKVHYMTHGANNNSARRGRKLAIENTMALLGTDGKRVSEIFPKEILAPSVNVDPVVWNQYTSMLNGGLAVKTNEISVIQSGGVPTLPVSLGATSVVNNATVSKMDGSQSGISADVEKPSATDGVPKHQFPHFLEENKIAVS
Technique: universal PBM
Molecule type: double-stranded DNA, one strand shown
Medium: in vitro
Concentration: 600 nM
Setting: 8-mer, flanks averaged, mean of replicates
Reading: higher = stronger binding
The E-score of `AGTAGGAC` is reported as -0.0707.
`ACGGGCAA` has an E-score of -0.073.
The E-score of `CTTGCTTC` is reported as 0.0229.
With `CTCAGGGA` the E-score was -0.319.
The E-score of `AACCTAAC` is reported as 0.0633.

Study 3
Target: Histone acetyltransferase KAT6A, both winged helices, GST fusion (KAT6A, Homo sapiens, UniProt Q92794, residues 1-181)
Technique: protein binding microarray
Molecule type: double-stranded DNA, one strand shown
Medium: in vitro
Concentration: not given
Setting: 8-mer, flanks averaged, mean of 2 arrays, mostly near background
Relative to: not given
Reading: higher = stronger binding
Target sequence (chain): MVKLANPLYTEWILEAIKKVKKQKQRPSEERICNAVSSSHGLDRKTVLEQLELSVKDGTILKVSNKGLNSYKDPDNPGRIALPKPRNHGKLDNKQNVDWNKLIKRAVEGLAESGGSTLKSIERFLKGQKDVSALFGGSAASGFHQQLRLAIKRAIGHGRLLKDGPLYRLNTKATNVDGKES
`CGGCCGAC` gave an E-score of 0.348.
With `CGCCTACG` the E-score was 0.178.
`AACTTATT` has an E-score of -0.0288.
For `CTTAGGTA`, the E-score was -0.283.
With `ACTTACTA` the E-score was -0.219.
The E-score of `CCCTAAAA` is reported as -0.212.

Further values, each from its own experiment
With `PhoQ, residues 284 288 289 292 302 303 AAQSYM` the fold induction was 18.5 (PhoP, residues 12 14 15 18 19 LHHVQ (Escherichia coli, UniProt P23836); Sort-seq, measured: YFP reporter; E. coli; PhoQ-PhoP variant library, together with: 10 µM Mg2+; relative to: high Mg2+ state, higher = stronger signaling).

For quick reference, copied from above (study 2):
`ACGGGCAA` has an E-score of -0.073.
The E-score of `AACCTAAC` is reported as 0.0633.
